{"data": "Published values gathered from unrelated publications", "note": "Numbered parts are unrelated; each lists some results of a single study. Changes are numbered by the printed parent chain."}
{"data": "Sample 1", "target": "CREB5, bZIP domain (human)", "technique": "DHFR protein complementation", "sample": "yeast", "setting": "single substitutions, most at no-binding floor", "reference": "wild-type JUN-FOS pair", "reading": "higher = stronger binding", "starting sequence": "JUN, bZIP domain (human); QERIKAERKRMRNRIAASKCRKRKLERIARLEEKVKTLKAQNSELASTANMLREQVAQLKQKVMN; partner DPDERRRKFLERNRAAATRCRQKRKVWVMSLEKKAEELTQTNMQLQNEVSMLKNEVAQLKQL"}
{"Variant": "K34I", "binding fitness [natural log]": -0.439}
{"Variant": "L59I", "binding fitness [natural log]": -0.936}
{"Variant": "M51N", "binding fitness [natural log]": -0.253}
{"Variant": "S47W", "binding fitness [natural log]": -0.503}
{"Variant": "S43V", "binding fitness [natural log]": -0.377}
{"Variant": "S43L", "binding fitness [natural log]": -0.267}
{"Variant": "A49G", "binding fitness [natural log]": -1.16}
{"Variant": "T37S", "binding fitness [natural log]": -0.274}
{"Variant": "E33H", "binding fitness [natural log]": -0.489}
{"Variant": "A49K", "binding fitness [natural log]": -0.506}
{"Variant": "N42T", "binding fitness [natural log]": -1.07}
{"Variant": "R53L", "binding fitness [natural log]": -1.19}
{"Variant": "L38Y", "binding fitness [natural log]": -1.39}
{"Variant": "A57G", "binding fitness [natural log]": -0.478}
{"Variant": "T37Y", "binding fitness [natural log]": -0.28}
{"Variant": "V35H", "binding fitness [natural log]": -1.34}
{"Variant": "A46I", "binding fitness [natural log]": -0.207}
{"Variant": "Q41I", "binding fitness [natural log]": -0.408}
{"Variant": "S43D", "binding fitness [natural log]": -0.123}
{"Variant": "N50D", "binding fitness [natural log]": -0.196}
{"data": "Sample 2", "target": "ABI1, truncated, D143A, DHFR fusion (Arabidopsis thaliana)", "technique": "DHFR PCA, deep sequencing", "sample": "yeast", "setting": "methotrexate growth selection, single substitutions", "with": "(+)-ABA 1.4 µM", "reference": "wild-type fitted maximum", "reading": "higher = stronger binding", "starting sequence": "PYL1, truncated, DHFR fusion (Arabidopsis thaliana); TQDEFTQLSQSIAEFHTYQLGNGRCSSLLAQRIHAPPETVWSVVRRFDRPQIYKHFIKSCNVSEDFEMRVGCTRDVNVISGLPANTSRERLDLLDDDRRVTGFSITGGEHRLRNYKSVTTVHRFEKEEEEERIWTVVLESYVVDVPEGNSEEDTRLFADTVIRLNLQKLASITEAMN"}
{"Variant": "R90A", "relative binding score": "1.64%"}
{"Variant": "L166W", "relative binding score": "2.09%"}
{"Variant": "F15K", "relative binding score": "-4.51%"}
{"Variant": "Q2P", "relative binding score": "70.8%"}
{"Variant": "S117A", "relative binding score": "24%"}
{"Variant": "I52H", "relative binding score": "17.4%"}
{"Variant": "Y141E", "relative binding score": "-8.14%"}
{"Variant": "E152R", "relative binding score": "19%"}
{"Variant": "F103H", "relative binding score": "6.95%"}
{"Variant": "E38A", "relative binding score": "28.2%"}
{"Variant": "C72M", "relative binding score": "54.2%"}
{"Variant": "F56G", "relative binding score": "-3.45%"}
{"Variant": "V40D", "relative binding score": "-12.8%"}
{"Variant": "F56V", "relative binding score": "-8.6%"}
{"Variant": "Y18L", "relative binding score": "0.543%"}
{"Variant": "I12F", "relative binding score": "-4.19%"}
{"Variant": "E4F", "relative binding score": "11.4%"}
{"data": "Sample 3", "organism": "Saccharomyces cerevisiae", "observed": "binding", "technique": "yeast competitive growth sequencing", "form": "peptide", "strain": "cyclin A1-Cln2 strain", "sample": "peptide tiling library", "setting": "pooled screen", "reading": "direction not given"}
{"Molecule": "QYQVVDDIVSKLVFDF", "enrichment score": 0.284}
{"Molecule": "NEGVSNAVRRSLYIRD", "enrichment score": -0.479}
{"Molecule": "YLYLLLTQSLWCRV", "enrichment score": -1.57}
{"Molecule": "QNPCGSKACRRLFGPV", "enrichment score": -2.06}
{"Molecule": "RTEALEQGGLPKKLIF", "enrichment score": -1.13}
{"Molecule": "AEHPKPSACRNLFGPV", "enrichment score": -0.206}
{"data": "Single results of other studies"}
{"Substance": "PhoQ, residues 284 288 289 292 302 303 SQSLSM", "target": "PhoP, residues 12 14 15 18 19 MHTVL (Escherichia coli, UniProt P23836)", "test": "Sort-seq, item: YFP reporter", "system": "E. coli", "conditions": "PhoQ-PhoP variant library, with: 10 µM Mg2+", "scale": "reference: high Mg2+ state, higher = stronger signaling", "endpoint": "fold induction", "value": 11.6}
{"note": "Excerpt of the above (sample 2):"}
{"Variant": "I12F", "relative binding score": "-4.19%"}
{"Variant": "V40D", "relative binding score": "-12.8%"}
{"Variant": "Y141E", "relative binding score": "-8.14%"}
{"Variant": "F15K", "relative binding score": "-4.51%"}
{"Variant": "I52H", "relative binding score": "17.4%"}
